Measurements collected from several papers.
Each numbered part is a random draw from the data of one study; scales do not carry over between parts. Substitutions count along the parent as printed.

Study 1 — method: protein-binding microarray; molecule type: hairpin DNA; medium: in vitro; tested at: not given; relative to: not given; reading: higher = stronger binding; constant ends, left off below: GAGGCCA … TGGCCTCACACTC
Target: Hepatocyte nuclear factor 3-beta, forkhead domain (FOXA2, Homo sapiens, UniProt Q9Y261, residues 142-269)
Notes: whole hairpin DNA, median over replicate spots
Target sequence (chain): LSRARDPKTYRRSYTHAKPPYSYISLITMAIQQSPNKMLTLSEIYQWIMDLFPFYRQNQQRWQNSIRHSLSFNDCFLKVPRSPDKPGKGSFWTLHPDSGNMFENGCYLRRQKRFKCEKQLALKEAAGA
Sequence	median fluorescence [a.u.]
TGCAAACCGCGCCTCCTGGCGCGGTTTGCA (5mC at 15)	3520
TGTAACCATCGCCTCCTGGCGATGGTTACA	3050
CGCAAACAACGCCTCCTGGCGTTGTTTGCG	3770
TGCAAACACGGCCTCCTGGCCGTGTTTGCA	3590
TGTAAACAGCGCCTCCTGGCGCTGTTTACA	4140
TGTAACCAACGCCTCCTGGCGTTGGTTACA (5mC at 17)	3170
TGGAAACAACGCCTCCTGGCGTTGTTTCCA (5mC at 35)	3170
TGCAAACAATGCCTCCTGGCATTGTTTGCA	3700

Study 2 — Variant: S171Y; method: DHFR PCA, deep sequencing; medium: yeast; relative to: wild-type fitted maximum; reading: higher = stronger binding
Target: ABI1, truncated, D143A, DHFR fusion (Arabidopsis thaliana)
Notes: methotrexate growth selection, single substitutions
Starting sequence: PYL1, truncated, DHFR fusion (Arabidopsis thaliana); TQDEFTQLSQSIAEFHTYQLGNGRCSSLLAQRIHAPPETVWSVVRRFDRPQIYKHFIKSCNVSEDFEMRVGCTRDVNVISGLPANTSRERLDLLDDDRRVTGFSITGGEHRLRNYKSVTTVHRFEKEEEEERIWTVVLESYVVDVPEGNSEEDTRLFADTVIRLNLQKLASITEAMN; partner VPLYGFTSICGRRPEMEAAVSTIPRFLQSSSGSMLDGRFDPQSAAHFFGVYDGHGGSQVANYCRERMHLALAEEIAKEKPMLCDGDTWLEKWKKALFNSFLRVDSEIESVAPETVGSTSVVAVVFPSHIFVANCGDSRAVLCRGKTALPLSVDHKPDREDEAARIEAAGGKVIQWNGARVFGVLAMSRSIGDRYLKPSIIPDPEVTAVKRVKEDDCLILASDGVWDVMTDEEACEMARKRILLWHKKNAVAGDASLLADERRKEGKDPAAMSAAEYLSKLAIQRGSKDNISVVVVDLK
setting	relative binding score
with: (+)-ABA 0.39 µM	17.1%
with: (+)-ABA 0.0091 µM	20.9%
with: (+)-ABA 0.11 µM	25.6%
with: (+)-ABA 1.4 µM	27.5%
with: (+)-ABA 0.032 µM	10.4%
with: (+)-ABA 4.8 µM	67.4%

Study 3 — target: CCND1, cyclin fold, Cln2 fusion (human); method: yeast growth competition, sequencing; medium: yeast; notes: weak parent motif; relative to: not given; reading: higher = stronger binding
Starting sequence: MICAL3 docking peptide (human); LQLRRQLSFSEDS; partner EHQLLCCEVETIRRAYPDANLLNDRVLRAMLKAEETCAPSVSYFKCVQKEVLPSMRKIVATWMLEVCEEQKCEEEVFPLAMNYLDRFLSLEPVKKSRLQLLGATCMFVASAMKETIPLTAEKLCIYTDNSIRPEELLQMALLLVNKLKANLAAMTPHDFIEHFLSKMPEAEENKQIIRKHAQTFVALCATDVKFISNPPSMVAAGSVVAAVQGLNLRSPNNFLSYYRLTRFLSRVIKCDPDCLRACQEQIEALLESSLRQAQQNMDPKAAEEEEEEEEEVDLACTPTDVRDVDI
Variant	normalised enrichment score
LQLRRQLSFSFDS [E11F]	-0.0722
LQLRRQLPFSEDS [S8P]	-0.252
LQLRRQLSFSEGS [D12G]	0.208
LQLRRLLSFSEDS [Q6L]	0.187
LALRRQLSFSEDS [Q2A]	0.233
LQLERQLSFSEDS [R4E]	-0.429
LQMRRQLSFSEDS [L3M]	0.129
LQLRRQLSFSEQS [D12Q]	0.314

Other studies, line by line
Molecule	target	test	test system	setting	measurement	result
TTDDSTSYY	HLA class I histocompatibility antigen, A alpha chain, allele A*25:01 (Homo sapiens, UniProt P04439)	peptide-MHC binding	peptide	concentration not given	binding	inactive

A few entries again (study 2):
setting	relative binding score
with: (+)-ABA 0.11 µM	25.6%
with: (+)-ABA 1.4 µM	27.5%
with: (+)-ABA 0.032 µM	10.4%
